# Results collected from several papers.
# ± gives the spread as reported.
Compound,test,test system,setting,how to read,quantity,value
CC(=O)N(C)[C@H]1CCN(C(=O)c2cnc3c(c2)C[C@](C)(c2ccc(F)cc2)N3)C1,,"healthy male human, plasma","oral, 30 mg once daily, steady state, geometric mean",,apparent oral clearance,347 mL/min
C[C@H](Cn1cnc2c(N)ncnc21)OCP(=O)(O)O,population PK model,"human, plasma","oral, dose not given, reduced model bootstrap median",,apparent volume of distribution,2340 L
O=C(Nc1nc2cccc(-c3ccc(CN4CCS(=O)(=O)CC4)cc3)n2n1)C1CC1,population PK bootstrap median,human,"oral, dose not given",,apparent peripheral volume,35.1 L
CNC(=O)c1c(C)oc2cc(Oc3ncnc4cc(OC)c(OC)cc34)ccc12,population PK model,human,70 kg body weight,,apparent clearance (CL/F),0.794 L/h
NC(=O)N1c2ccccc2CC(=O)c2ccccc21,population PK modelling,"human patients, plasma","oral, joint parent-metabolite model",,apparent clearance,198 L/h
CCn1c(=O)c(-c2cc(NC(=O)Nc3ccccc3)c(F)cc2Br)cc2cnc(NC)cc21,,"human, plasma","oral, 150 mg once daily, steady state",,apparent clearance CL/F,13.5 L/h
Cc1nc(Nc2ncc(C(=O)Nc3c(C)cccc3Cl)s2)cc(N2CCN(CCO)CC2)n1,,"human patients, plasma","oral, dose not given, day 42, median of combined dose levels",,apparent oral clearance,2650 mL/min/m²
C[C@@H](Oc1ccc(S(C)(=O)=O)cc1C(=O)N1C[C@@H]2C[C@]2(c2cc(C(F)(F)F)on2)C1)C(F)(F)F,,"young healthy humans, plasma","oral, 75 mg once daily, multiple dosing",,apparent clearance at steady state,148 mL/min
Cc1ccc(C)c(OCCCC(C)(C)C(=O)O)c1,,"human, plasma","oral, dose not given, added: lopinavir-ritonavir",baseline: without lopinavir-ritonavir,apparent clearance (CL/F) increase,69%
Cn1cc(-c2cn3nccc3c(-c3cnn([C@]4(CC#N)C[C@@H](C#N)C4)c3)n2)cn1,,"healthy humans fasted, plasma","3 mg single dose, geometric mean",,apparent clearance CL/F,63 L/h
CC[C@@H]1CN(C(=O)NCC(F)(F)F)C[C@@H]1c1cnc2cnc3[nH]ccc3n12,population PK modelling,human,"oral, dose not given, final model, outliers re-estimated",,apparent peripheral volume (Vp/F),68.7 L
COC(=O)N[C@@H](C)CNc1nccc(-c2cn(C(C)C)nc2-c2cc(Cl)cc(NS(C)(=O)=O)c2F)n1,,"human, plasma","oral, 50 mg, single dose alone",arithmetic mean,apparent volume Vz/F,160 ± 68.8 L
CNC(=O)c1ccc(N2C(=S)N(c3ccc(C#N)c(C(F)(F)F)c3)C(=O)C2(C)C)cc1F,population PK base model,"human, male",oral,,apparent intercompartmental clearance,21.2 L/h
NC[C@@]1(CC(=O)O)[C@@H]2CC[C@H]3C[C@@H]2[C@@H]1C3,,"human, normal renal function, plasma","oral, 20 mg single dose, geometric mean",,apparent clearance,11.2 L/h
C[C@@]1(c2cc(NC(=O)c3ccc(C#N)cn3)ccc2F)C=CSC(N)=N1,,"elderly humans, both sexes, plasma","oral, 150 mg single dose, mean",,apparent clearance CL/F,11.3 L/h
C=CC(=O)N(C)CCOc1c(N)ncnc1-c1cc(F)cc(NC(=O)c2ccc(C3CC3)cc2F)c1C,,"human, whole blood","oral, 600 mg, single ascending dose",,apparent clearance CL/F,564 L/h
[H]/N=C(/N)c1ccc(NCc2nc3cc(C(=O)N(CCC(=O)O)c4ccccn4)ccc3n2C)cc1,,"healthy humans, plasma","oral, 75 mg, alone, geometric mean",,apparent volume of distribution,1960 L
